Assay results pooled from the literature.
Lines come from different studies, so protocols differ.

COC(=O)[C@H]1[C@@H](c2ccc(Cl)c(C)c2)C[C@@H]2CC[C@H]1N2  ED50 (nicotine-induced hypothermia, antagonist; mice; with: nicotine 2.5 mg/kg sc): 0.14 to 7.4 mg/kg
O=C(O)/C=C/C(=O)O.Oc1cccc2[nH]cc(CCNCc3ccccc3)c12  ED50 (head twitch response; C57BL/6J mice; subcutaneous, 30 min session): 1.2 mg/kg
Cc1cccc([C@]2(O)OCC(C)(C)N[C@H]2C)c1  ED50 (nicotine antinociception, antagonist, tail-flick test; mice; 15 min pretreatment, with: nicotine 2.5 mg/kg sc): 0.034 to 0.054 mg/kg
O=C(c1cccc2ccccc12)c1nn(CCCCCF)c2ccccc12  ED50 (locomotor depression; male ND4 Swiss-Webster mice; intraperitoneal): 0.53 mg/kg
C=CCN1CC[C@]23c4c5ccc(O)c4O[C@H]2[C@H](NC(=O)CCCCC)CC[C@@]3(O)[C@H]1C5  ED50 (tail flick analgesia, radiant heat tail flick; CD-1 mice; subcutaneous): > 10 mg/kg
CCNCCc1c[nH]c2cccc(O)c12.CCNCCc1c[nH]c2cccc(O)c12.O=C(O)CCC(=O)O  ED50 (head twitch response; C57BL/6J mice; subcutaneous, 30 min session): 1.4 mg/kg
C=CCN1CC[C@]23c4c5ccc(O)c4O[C@H]2[C@H](NC(=O)c2ccccc2)CC[C@@]3(O)[C@H]1C5  ED50 (tail flick analgesia, radiant heat tail flick; CD-1 mice; subcutaneous): 5 mg/kg
CCCCCn1cc(C(=O)NC(C(N)=O)C(C)(C)C)c2ccccc21 (stereo not shown)  ED50 (locomotor depression; male ND4 Swiss-Webster mice; intraperitoneal): 1.07 mg/kg
COC(=O)[C@H]1[C@@H](c2ccc(Cl)c(C)c2)C[C@@H]2CC[C@H]1N2C  ED50 (nicotine antinociception, antagonist, hot-plate test; mice; with: nicotine 2.5 mg/kg sc): 0.35 to 9.8 mg/kg
CCCCNCCc1c[nH]c2cccc(O)c12.O=C(O)/C=C/C(=O)O  ED50 (head twitch response; C57BL/6J mice; subcutaneous, 30 min session): > 30 mg/kg
CCCCCn1nc(C(=O)NC(C(N)=O)C(C)(C)C)c2ccccc21 (stereo not shown)  ED50 (locomotor depression; male ND4 Swiss-Webster mice; intraperitoneal): 0.31 mg/kg
CC(C)(C)NCCc1c[nH]c2cccc(O)c12.CC(C)(C)NCCc1c[nH]c2cccc(O)c12.O=C(O)/C=C/C(=O)O  ED50 (head twitch response; C57BL/6J mice; subcutaneous, 30 min session): > 30 mg/kg
CCCCCc1cc(O)c2c(c1)OC(C)(C)[C@@H]1CCC(C)=C[C@@H]21  ED50 (hypothermia; ICR mice, female, rectal temperature; intraperitoneal): 5.95 mg/kg

Excerpt of the above:
COC(=O)[C@H]1[C@@H](c2ccc(Cl)c(C)c2)C[C@@H]2CC[C@H]1N2C  ED50 (nicotine antinociception, antagonist, hot-plate test; mice; with: nicotine 2.5 mg/kg sc): 0.35 to 9.8 mg/kg
